Assay results pooled from the literature.
Parts stem from different laboratories: compare values within a part only.
Chain of UniProt O95819 (whole entry, looked up): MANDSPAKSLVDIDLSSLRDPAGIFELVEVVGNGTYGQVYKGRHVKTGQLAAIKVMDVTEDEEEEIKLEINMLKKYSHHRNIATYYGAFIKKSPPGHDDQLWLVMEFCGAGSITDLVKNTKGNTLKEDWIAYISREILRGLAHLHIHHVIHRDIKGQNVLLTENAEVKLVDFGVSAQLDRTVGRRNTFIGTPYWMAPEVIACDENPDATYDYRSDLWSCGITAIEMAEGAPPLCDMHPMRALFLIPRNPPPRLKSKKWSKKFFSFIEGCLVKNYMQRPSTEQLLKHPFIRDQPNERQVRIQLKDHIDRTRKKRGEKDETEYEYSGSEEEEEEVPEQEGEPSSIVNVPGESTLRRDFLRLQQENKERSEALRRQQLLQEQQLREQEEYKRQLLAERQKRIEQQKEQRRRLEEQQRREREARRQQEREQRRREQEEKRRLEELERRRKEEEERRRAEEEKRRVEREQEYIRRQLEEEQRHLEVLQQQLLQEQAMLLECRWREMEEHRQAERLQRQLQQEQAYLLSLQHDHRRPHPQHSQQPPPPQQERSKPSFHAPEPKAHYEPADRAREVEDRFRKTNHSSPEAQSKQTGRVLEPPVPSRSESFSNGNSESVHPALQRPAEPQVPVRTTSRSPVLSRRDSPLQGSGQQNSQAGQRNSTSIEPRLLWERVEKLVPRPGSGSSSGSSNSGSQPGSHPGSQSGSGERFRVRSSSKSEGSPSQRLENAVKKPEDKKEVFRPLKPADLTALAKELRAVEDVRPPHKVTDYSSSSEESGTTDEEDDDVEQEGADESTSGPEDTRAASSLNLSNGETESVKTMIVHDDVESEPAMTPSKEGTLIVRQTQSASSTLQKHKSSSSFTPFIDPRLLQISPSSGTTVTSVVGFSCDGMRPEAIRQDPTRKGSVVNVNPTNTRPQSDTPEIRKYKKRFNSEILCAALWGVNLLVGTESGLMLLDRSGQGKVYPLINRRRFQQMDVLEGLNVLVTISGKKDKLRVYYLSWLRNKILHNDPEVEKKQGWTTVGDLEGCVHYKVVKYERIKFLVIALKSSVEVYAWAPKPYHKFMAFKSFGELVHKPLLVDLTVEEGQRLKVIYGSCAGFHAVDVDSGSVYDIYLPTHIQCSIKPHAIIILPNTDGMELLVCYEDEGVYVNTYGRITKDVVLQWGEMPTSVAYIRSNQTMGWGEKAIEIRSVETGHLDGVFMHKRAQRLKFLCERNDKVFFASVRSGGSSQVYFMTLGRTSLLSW
Chain of UniProt Q00526 (whole entry, looked up): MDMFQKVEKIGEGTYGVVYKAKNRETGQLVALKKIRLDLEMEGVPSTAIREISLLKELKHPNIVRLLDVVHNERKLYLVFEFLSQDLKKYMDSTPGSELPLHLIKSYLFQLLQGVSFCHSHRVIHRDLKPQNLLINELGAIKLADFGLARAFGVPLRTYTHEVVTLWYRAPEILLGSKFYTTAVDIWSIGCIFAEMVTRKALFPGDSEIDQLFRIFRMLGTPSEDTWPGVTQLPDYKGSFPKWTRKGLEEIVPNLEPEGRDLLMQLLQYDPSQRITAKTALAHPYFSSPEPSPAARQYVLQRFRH
Chain of UniProt P45985 (whole entry, looked up): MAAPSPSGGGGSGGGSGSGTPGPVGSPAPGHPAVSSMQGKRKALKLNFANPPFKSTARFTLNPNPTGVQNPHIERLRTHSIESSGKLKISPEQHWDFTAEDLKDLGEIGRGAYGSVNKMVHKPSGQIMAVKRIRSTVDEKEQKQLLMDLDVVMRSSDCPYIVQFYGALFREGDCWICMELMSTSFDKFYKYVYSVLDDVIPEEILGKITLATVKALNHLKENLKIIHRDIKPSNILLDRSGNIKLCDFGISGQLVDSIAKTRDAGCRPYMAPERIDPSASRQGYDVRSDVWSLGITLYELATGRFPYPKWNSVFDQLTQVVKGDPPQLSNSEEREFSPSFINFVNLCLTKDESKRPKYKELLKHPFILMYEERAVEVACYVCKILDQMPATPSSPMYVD
Chain of UniProt P49336 (whole entry, looked up): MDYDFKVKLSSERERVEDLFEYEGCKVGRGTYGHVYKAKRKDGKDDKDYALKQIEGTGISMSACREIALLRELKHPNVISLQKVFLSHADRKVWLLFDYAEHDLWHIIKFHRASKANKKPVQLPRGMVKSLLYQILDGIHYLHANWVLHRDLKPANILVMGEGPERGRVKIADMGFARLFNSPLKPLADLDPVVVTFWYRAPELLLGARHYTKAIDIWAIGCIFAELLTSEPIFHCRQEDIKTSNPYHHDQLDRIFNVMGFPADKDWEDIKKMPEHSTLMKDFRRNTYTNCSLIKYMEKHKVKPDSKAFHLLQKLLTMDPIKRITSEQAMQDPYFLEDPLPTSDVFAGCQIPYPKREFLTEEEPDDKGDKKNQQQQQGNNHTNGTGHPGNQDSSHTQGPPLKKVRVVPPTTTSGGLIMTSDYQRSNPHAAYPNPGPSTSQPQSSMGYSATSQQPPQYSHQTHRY

Series 1 — concentration: 1 µM
SMILES: COc1ccc2[nH]c3c4[nH]c5ccc(OC)cc5c4c4c(c3c2c1)C(=O)NC4=O
target | method | setting | reference | remaining binding [%]
LIM domain kinase 2 (LIMK2, Homo sapiens, UniProt P53671) | competitive binding panel |  | vehicle | 81
Serine/threonine-protein kinase pim-3 (PIM3, Homo sapiens, UniProt Q86V86) | competitive binding panel |  | vehicle | 2.6
cAMP-dependent protein kinase catalytic subunit alpha (PRKACA, Homo sapiens, UniProt P17612) | competitive binding | PKAC-alpha |  | 87
Ephrin type-A receptor 3 (EPHA3, Homo sapiens, UniProt P29320) | competitive binding panel |  | vehicle | 86
Tyrosine-protein kinase JAK1 (JAK1, Homo sapiens, UniProt P23458) | competitive binding panel | JH1 catalytic domain | vehicle | 100
Serine/threonine-protein kinase MARK2 (MARK2, Homo sapiens, UniProt Q7KZI7) | competitive binding panel |  | vehicle | 71
Mast/stem cell growth factor receptor Kit (KIT, Homo sapiens, UniProt P10721) | competitive binding scan | autoinhibited form |  | 72
Tyrosine-protein kinase TXK (TXK, Homo sapiens, UniProt P42681) | competitive binding panel |  | vehicle | 100

Series 2 — effect on: enzyme activity; action: inhibitor; concentration: 77 µM; reference: untreated
Target: DNA polymerase theta, ATPase domain (POLQ, Homo sapiens, UniProt O75417)
Chain of UniProt O75417 (whole entry, unmodified, looked up): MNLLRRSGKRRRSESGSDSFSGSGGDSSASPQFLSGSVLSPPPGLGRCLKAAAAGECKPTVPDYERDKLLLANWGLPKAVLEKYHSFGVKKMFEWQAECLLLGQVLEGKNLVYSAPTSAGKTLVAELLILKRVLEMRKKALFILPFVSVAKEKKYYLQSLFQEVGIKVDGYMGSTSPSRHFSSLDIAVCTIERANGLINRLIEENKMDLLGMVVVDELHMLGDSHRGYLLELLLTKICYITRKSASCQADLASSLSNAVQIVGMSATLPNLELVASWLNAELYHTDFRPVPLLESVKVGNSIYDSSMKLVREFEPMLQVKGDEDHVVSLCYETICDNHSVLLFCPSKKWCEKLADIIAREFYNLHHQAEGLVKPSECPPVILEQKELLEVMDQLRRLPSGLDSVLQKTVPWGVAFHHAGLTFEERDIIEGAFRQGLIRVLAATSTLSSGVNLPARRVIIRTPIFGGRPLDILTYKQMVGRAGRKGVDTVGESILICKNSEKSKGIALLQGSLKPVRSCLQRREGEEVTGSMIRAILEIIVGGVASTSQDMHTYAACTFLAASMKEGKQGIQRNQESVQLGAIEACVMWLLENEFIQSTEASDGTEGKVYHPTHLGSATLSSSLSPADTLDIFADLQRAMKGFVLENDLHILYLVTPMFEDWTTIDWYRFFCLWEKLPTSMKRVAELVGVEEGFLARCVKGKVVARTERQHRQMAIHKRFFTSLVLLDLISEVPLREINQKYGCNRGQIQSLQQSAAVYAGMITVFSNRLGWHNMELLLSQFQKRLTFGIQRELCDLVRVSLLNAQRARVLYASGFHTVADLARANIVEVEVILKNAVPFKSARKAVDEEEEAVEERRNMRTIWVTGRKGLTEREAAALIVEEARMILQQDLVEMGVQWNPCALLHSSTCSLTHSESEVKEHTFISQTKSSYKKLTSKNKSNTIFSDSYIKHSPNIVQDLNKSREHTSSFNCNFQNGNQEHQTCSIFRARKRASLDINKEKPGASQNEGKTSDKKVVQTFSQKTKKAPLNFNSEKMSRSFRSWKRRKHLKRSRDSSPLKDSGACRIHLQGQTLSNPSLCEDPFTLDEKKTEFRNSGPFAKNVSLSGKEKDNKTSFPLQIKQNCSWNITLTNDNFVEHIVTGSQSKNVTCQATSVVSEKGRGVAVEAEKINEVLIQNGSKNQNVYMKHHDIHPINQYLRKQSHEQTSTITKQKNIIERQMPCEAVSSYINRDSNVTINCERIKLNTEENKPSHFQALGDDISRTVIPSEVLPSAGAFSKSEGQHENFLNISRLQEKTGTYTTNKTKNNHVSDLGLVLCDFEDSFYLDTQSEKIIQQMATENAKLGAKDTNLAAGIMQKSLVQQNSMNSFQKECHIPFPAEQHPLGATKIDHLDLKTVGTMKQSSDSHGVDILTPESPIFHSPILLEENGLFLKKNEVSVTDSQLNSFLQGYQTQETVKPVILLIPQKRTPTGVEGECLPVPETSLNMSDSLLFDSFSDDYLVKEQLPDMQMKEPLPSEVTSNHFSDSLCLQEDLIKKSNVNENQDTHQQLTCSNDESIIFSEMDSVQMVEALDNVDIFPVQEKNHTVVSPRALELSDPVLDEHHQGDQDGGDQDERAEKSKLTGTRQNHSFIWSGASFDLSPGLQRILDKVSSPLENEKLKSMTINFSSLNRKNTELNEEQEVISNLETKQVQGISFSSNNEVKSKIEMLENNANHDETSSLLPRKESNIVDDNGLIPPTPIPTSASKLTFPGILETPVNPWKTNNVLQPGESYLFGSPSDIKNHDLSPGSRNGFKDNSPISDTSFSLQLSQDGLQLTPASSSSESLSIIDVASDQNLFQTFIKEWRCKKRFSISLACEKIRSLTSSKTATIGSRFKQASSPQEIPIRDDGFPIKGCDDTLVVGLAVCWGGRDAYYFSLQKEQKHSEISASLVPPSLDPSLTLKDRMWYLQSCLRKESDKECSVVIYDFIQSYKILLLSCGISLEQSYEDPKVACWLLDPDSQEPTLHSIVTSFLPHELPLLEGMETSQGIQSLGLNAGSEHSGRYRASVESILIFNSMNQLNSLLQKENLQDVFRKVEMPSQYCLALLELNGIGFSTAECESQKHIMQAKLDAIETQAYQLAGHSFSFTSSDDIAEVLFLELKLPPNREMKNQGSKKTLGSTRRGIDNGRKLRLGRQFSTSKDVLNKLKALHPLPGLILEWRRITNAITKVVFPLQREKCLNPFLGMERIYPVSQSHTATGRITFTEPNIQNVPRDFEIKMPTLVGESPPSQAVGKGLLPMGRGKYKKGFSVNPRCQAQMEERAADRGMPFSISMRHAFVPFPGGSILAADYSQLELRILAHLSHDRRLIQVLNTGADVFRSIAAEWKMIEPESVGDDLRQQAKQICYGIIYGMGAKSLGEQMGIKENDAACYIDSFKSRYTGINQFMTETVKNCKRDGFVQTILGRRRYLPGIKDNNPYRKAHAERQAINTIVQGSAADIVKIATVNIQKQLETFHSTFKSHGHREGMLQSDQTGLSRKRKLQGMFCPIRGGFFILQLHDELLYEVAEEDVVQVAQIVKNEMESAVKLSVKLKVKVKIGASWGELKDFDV
SMILES | remaining activity [%]
Nc1nccc(-c2c(-c3ccc(F)cc3)ncn2C2CCNCC2)n1 | 105
COc1cc(=O)n(C)c2c(OCC(O)C(C)(C)O)cccc12 (stereo not shown) | 104
c1ccc2c(c1)CCC[C@H]2Nc1nc2ccccc2[nH]1 | 101
c1ccc(-c2ccc(C(c3ccccc3)n3ccnc3)cc2)cc1 (stereo not shown) | 91
CC(C)[C@H]1CC[C@H](C(=O)N[C@H](Cc2ccccc2)C(=O)O)CC1 | 85.6
Cc1cc(C)c(Nc2ccnc(Nc3ccc(C#N)cc3)n2)c(C)c1 | 103
C[C@]1(OC(=O)/C=C/c2ccccc2)C[C@@H](O)[C@]2(O)C=CO[C@@H](O[C@@H]3O[C@H](CO)[C@@H](O)[C@H](O)[C@H]3O)[C@@H]21 | 105
COc1cc(CNC(=O)CCCCCCC(C)C)ccc1O | 96.7

Series 3 — effect on: cell-free assay; method: competition with immobilised ligand; concentration: 1 µM
SMILES: C[C@@H]1CN(c2cc(-c3nn(C)c4ccc(OC5(C)CC5)cc34)ncn2)C[C@H](C)O1
target | remaining binding [%]
Serine/threonine-protein kinase D2 (PRKD2, Homo sapiens, UniProt Q9BZL6) | 90
Non-receptor tyrosine-protein kinase TYK2, JH2 (TYK2, Homo sapiens, UniProt P29597) | 82
Tyrosine-protein kinase ABL1, phosphorylated (ABL1, Homo sapiens, UniProt P00519, T315I) | 74
G protein-coupled receptor kinase 3 (GRK3, Homo sapiens, UniProt P35626) | 69
Serine/threonine-protein kinase D1 (PRKD1, Homo sapiens, UniProt Q15139) | 82
Ephrin type-A receptor 6 (EPHA6, Homo sapiens, UniProt Q9UF33) | 100
G protein-coupled receptor kinase 4 (GRK4, Homo sapiens, UniProt P32298) | 96
Mitogen-activated protein kinase 12 (MAPK12, Homo sapiens, UniProt P53778) | 100
Calcium/calmodulin-dependent protein kinase kinase 1 (CAMKK1, Homo sapiens, UniProt Q8N5S9) | 80
Testis-specific serine/threonine-protein kinase 3 (TSSK3, Homo sapiens, UniProt Q96PN8) | 75
Proto-oncogene tyrosine-protein kinase receptor Ret (RET, Homo sapiens, UniProt P07949) | 96
Cyclin-dependent kinase 8 (CDK8, Homo sapiens, UniProt P49336) | 100
Interleukin-1 receptor-associated kinase 1 (IRAK1, Homo sapiens, UniProt P51617) | 67
High affinity nerve growth factor receptor (NTRK1, Homo sapiens, UniProt P04629) | 76
Tyrosine-protein kinase JAK2, JH1 (JAK2, Homo sapiens, UniProt O60674) | 55
Serine/threonine-protein kinase tousled-like 1 (TLK1, Homo sapiens, UniProt Q9UKI8) | 100
Ribosomal protein S6 kinase alpha-1, C-terminal kinase domain (RPS6KA1, Homo sapiens, UniProt Q15418) | 100
Tyrosine-protein kinase BTK (BTK, Homo sapiens, UniProt Q06187) | 80
Mitogen-activated protein kinase 7 (MAPK7, Homo sapiens, UniProt Q13164) | 76
Phosphatidylinositol 4,5-bisphosphate 3-kinase catalytic subunit alpha isoform (PIK3CA, Homo sapiens, UniProt P42336, C420R) | 100
5'-AMP-activated protein kinase catalytic subunit alpha-2 (PRKAA2, Homo sapiens, UniProt P54646) | 100
Mitogen-activated protein kinase kinase kinase kinase 4 (MAP4K4, Homo sapiens, UniProt O95819) | 100
Misshapen-like kinase 1 (MINK1, Homo sapiens, UniProt Q8N4C8) | 66
Cyclin-dependent kinase 3 (CDK3, Homo sapiens, UniProt Q00526) | 98
Serine/threonine-protein kinase PAK 6 (PAK6, Homo sapiens, UniProt Q9NQU5) | 100

Series 4 — effect on: enzyme activity; action: inhibitor; concentration: 1 µM
SMILES: CC#CC(=O)N1CCC[C@H]1c1nc(-c2ccc(C(=O)Nc3ccccn3)cc2)c2c(N)nccn12
target | inhibition
RAC-gamma serine/threonine-protein kinase (AKT3, Homo sapiens, UniProt Q9Y243) | 0%
Tyrosine-protein kinase Fer (FER, Homo sapiens, UniProt P16591) | 0%
RAF proto-oncogene serine/threonine-protein kinase (RAF1, Homo sapiens, UniProt P04049) | 26%
Platelet-derived growth factor receptor beta (PDGFRB, Homo sapiens, UniProt P09619) | 6%
Tyrosine-protein kinase Fes/Fps (FES, Homo sapiens, UniProt P07332) | 3%
Dual specificity mitogen-activated protein kinase kinase 7 (MAP2K7, Homo sapiens, UniProt O14733) | 17%
Mitogen-activated protein kinase kinase kinase kinase 4 (MAP4K4, Homo sapiens, UniProt O95819) | 0%
Dual specificity mitogen-activated protein kinase kinase 4 (MAP2K4, Homo sapiens, UniProt P45985) | 0%
Serine/threonine-protein kinase 24 (STK24, Homo sapiens, UniProt Q9Y6E0) | 0%

Series 5 — matrix: EL4 tumour; dose: dose not given; reference: vehicle
Compound: CC(=O)N[C@@H](Cc1c[nH]c2ccccc12)C(=O)N[C@@H](CCC(=O)C=[N+]=[N-])C(=O)OC(C)C
measured | host | log2 fold change
fumarate | mouse, EL4 tumour-bearing | -0.706
2'-AMP | mouse, EL4 tumour-bearing | 0.619
3-methylhistidine | mouse, EL4 tumour-bearing | -0.494
2'-deoxyguanosine | mouse, EL4 tumour-bearing | 0.322
N-acetyl-aspartyl-glutamate | Mus musculus | -0.146
5-hydroxylysine | mouse, EL4 tumour-bearing | 0.359
gamma-glutamylglutamine | mouse, EL4 tumour-bearing | -0.25
anserine | mouse, EL4 tumour-bearing | 1.86

A few entries again (series 3):
target | remaining binding [%]
Interleukin-1 receptor-associated kinase 1 (IRAK1, Homo sapiens, UniProt P51617) | 67
Calcium/calmodulin-dependent protein kinase kinase 1 (CAMKK1, Homo sapiens, UniProt Q8N5S9) | 80
Phosphatidylinositol 4,5-bisphosphate 3-kinase catalytic subunit alpha isoform (PIK3CA, Homo sapiens, UniProt P42336, C420R) | 100
Tyrosine-protein kinase ABL1, phosphorylated (ABL1, Homo sapiens, UniProt P00519, T315I) | 74
Ephrin type-A receptor 6 (EPHA6, Homo sapiens, UniProt Q9UF33) | 100
G protein-coupled receptor kinase 3 (GRK3, Homo sapiens, UniProt P35626) | 69
G protein-coupled receptor kinase 4 (GRK4, Homo sapiens, UniProt P32298) | 96
Serine/threonine-protein kinase PAK 6 (PAK6, Homo sapiens, UniProt Q9NQU5) | 100
Serine/threonine-protein kinase D2 (PRKD2, Homo sapiens, UniProt Q9BZL6) | 90
